Results gathered from unrelated publications.
Each numbered part is a random draw from the data of one study; scales do not carry over between parts.

Study 1
Target: Prothrombin, mature alpha-thrombin (F2, Homo sapiens, UniProt P00734)
Method: aptamer microarray, sandwich
Form: DNA with 2'F-ANA
Sample: in vitro
Tested at: 200 nM
Notes: whole 15-mer aptamer, many near background
Added: Cy3 exosite-II aptamer, 400 nM
Direction: higher = stronger binding
Endpoint: mean fluorescence intensity
Oligonucleotide: GGTTGGTGTGGTTGG
2'F-ANA at 2 3 5 6 10 15: 54.3 a.u.
2'F-ANA at 6 13 15: 366 a.u.
2'F-ANA at 1 2 5 7 12 15: 127 a.u.
2'F-ANA at 1 3 4 5 7 8 9 14: 48.9 a.u.
2'F-ANA at 1 2 3 4 5 6 7 10 11 12 13: 49.5 a.u.
2'F-ANA at 1 3 4 5 9 10 11 12: 94.1 a.u.
2'F-ANA at 3 5 6 11 12 14 15: 56.6 a.u.
2'F-ANA at 1 2 5 7 8 9 10 11 12 15: 82.4 a.u.
2'F-ANA at 1 2 4 5 8 9 10 15: 43.4 a.u.
2'F-ANA at 4 6 11 13: 165 a.u.
2'F-ANA at 1 4 7 10 13 14: 136 a.u.
2'F-ANA at 1 2 3 4 5 8 12 14: 49.8 a.u.
2'F-ANA at 2 4 7 8 9 10 11 12 15: 115 a.u.
2'F-ANA at 4 5 7 10 11 12 13 14 15: 47.1 a.u.

Study 2
Target: Ras GTPase-activating protein-binding protein 1, RRM domain (G3BP1, Homo sapiens, UniProt Q13283)
UniProt Q13283, sequence (whole entry, looked up): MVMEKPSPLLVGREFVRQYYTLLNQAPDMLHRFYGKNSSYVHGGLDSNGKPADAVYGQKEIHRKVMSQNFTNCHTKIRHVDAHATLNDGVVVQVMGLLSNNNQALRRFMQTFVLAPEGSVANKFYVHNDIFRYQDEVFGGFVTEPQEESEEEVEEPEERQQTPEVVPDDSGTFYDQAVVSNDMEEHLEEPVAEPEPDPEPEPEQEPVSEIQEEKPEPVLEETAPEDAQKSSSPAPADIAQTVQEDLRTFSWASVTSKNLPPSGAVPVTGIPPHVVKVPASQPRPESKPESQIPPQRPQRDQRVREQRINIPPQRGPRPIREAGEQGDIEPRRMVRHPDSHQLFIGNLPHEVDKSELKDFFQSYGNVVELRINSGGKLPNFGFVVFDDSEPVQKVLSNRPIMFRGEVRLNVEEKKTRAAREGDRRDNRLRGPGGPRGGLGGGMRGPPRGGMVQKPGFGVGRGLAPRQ
Method: RNA Bind-n-Seq
Form: RNA
Sample: in vitro
Tested at: 1 µM
Notes: whole 134-nt RNA, ends assumed
Added: 150 mM KCl
Relative to: input library
Direction: higher = stronger binding
Endpoint: log2 enrichment
Shared flanks, not repeated: GGGAGUUCUACAGUCCGACGAUC … UGGAAUUCUCGGGUGUCAAGG
GUCCUGUGCUACACAUCGUAUGUACCGAAUCGGGGAAAAAGGGGAAAAAGGGGUGGGGAAAGUAUUAUGUUACGCCGUUCGGAUCUGCAC: 1.02
UACCCUCGUGCCCCUGUUUUUCCUGGCCGUGGUAGUUACUCAAACAGAGGGAACUACAACAGAGGUGGAAUGCCCAACAGAGGGAACUAC: -0.245
CAAGUCCUGUGCUACACAUCGUAUGUACCGAAUCGGAAAAAAAGGUGGAAAAAGGAAAGUAUUAUGUUACGCCGUUCGGAUCUGCACUUC: -0.123
AGUCCUGUGCUACACAUCGUAUGUACCGAAUCGGGAAAAAAAGGGAAAAAGGGUGGGAAAGUAUUAUGUUACGCCGUUCGGAUCUGCACU: 0.677
ACCAUGCAGGUGGGCAUCUUUGGGAAGUGGGGCAAGGGGGGGAUAGGGAGGGGGGUAACACUUUGGGAACAGGUGGUCCCACGUCGUUUC: 0.63
UGGCCCUGGUGGCAUGCGGGGAGGAAGAGGUGGCCUCAUGGAUCGUGGUGGUCCCGGUGGAAUGUUCAGAGGUGGCCGUGGUGGAGAAAG: 1.47
GCGGGAAGUAAAAACAAAUGGAAAUGCUUCGGAUAGUGGCAGGGGUGGGGGUUGCUAAGGAAAGGGUGGGAUGGGAGUGGGUAAAGAGUU: 0.916
UGGCCCUGGUGGCAUGCGGGGAGGAAGAGGUGGCCUCAUGGACCGUGGUGGUCCCGGUGGAAUGUUCAGAGGUGGCCGUGGUGGAGACAG: 0.972
UCCUGUGCUACACAUCGUAUGUACCGAAUCGGGGUUUUUUGGUUUUUUGGUUUUUUGGGGAAAGUAUUAUGUUACGCCGUUCGGAUCUGC: -0.251
CCUCAAGUCCUGUGCUACACAUCGUAUGUACCGAAUCGGAAGGGAAGGGAAGGAAAGUAUUAUGUUACGCCGUUCGGAUCUGCACUUCCA: -0.301

Study 3
Target: Interferon regulatory factor 7, full length, phosphomimetic (IRF7, Homo sapiens, UniProt Q92985, residues 1-503, S471D/S472D/S475D/S476D/S477D/S483D/S484D/S487D)
Method: protein-binding microarray
Form: double-stranded DNA, one strand shown
Sample: in vitro
Tested at: 2200 nM top
Notes: 60-bp whole probe
Added: salmon DNA 0.4 mg/ml
Relative to: random background probes
Direction: higher = stronger binding
Endpoint: fitted relative affinity
Shared flanks, not repeated: GCCTAGCAC … GTCTTGATTCGCTTGACGCTGCTG
Target sequence (chain): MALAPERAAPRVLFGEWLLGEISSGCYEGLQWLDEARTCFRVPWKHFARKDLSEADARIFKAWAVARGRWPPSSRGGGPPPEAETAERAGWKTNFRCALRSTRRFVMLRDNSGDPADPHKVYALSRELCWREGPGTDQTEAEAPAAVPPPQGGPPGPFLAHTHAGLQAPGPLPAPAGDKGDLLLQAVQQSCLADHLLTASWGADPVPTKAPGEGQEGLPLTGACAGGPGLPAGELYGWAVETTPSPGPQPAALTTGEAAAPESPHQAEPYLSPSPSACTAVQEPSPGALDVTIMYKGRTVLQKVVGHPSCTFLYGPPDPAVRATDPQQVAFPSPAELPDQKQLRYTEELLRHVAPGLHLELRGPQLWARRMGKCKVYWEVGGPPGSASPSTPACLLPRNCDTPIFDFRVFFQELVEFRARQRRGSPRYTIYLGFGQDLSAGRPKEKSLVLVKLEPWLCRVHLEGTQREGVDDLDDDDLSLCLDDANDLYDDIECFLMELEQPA
AACGATATCAGTATCGAGACGTGCTAG: 0.277 z-score
GTAGGTATCCTTATCCTTTAGTGCTAG: 0.717 z-score
GACGGTTTCGGTTTCGAGACGTGCTAG: 14.4 z-score
TTAGATTTCGTGACTGGATTAGTGCTA: 0.495 z-score
TCATATTAAAATTTAATACTGTGCTAG: -0.242 z-score
GAAGGTTTCCTTCTCCTGACGTGCTAG: 2.12 z-score
TTAGGACTGCTAGTGCTTTAGTGCTAG: -0.4 z-score
TTAGCTTTCGGGTATCGGTTAGTGCTA: 6.61 z-score
TCAACTTTCTCTGCTCTTTTCGTGCTA: 2.09 z-score
GGTCTTTCCACTTTCTTTTGGTGCTAG: 4.61 z-score
TCAGATTTACAAACTGTGACTGTGCTA: 0.00932 z-score
GACGATATAGGGTTTCGAGACGTGCTA: 1.01 z-score
GCCGGTTTCGGACTGGGGACGTGCTAG: 4.81 z-score
GACCGACTGGGGACTGGGGACGTGCTA: -0.509 z-score
GACGATATCGACTTTCGGGACGTGCTA: 3.37 z-score
TTAGGTATAGGTATCGGTTAGTGCTAG: 0.142 z-score
TTAGGTTCCGGGTATCGGTTAGTGCTA: 1.45 z-score
GACGGTCTCGGTTTCGGGACGTGCTAG: 3.85 z-score
TGGGGGGATCAGGGAAACAGGTGCTAG: 1.85 z-score
TTAGGACTGGACAGTGGGTTAGTGCTA: -0.538 z-score

Study 4
Target: Histone acetyltransferase KAT6A, winged helix 2, GST fusion (KAT6A, Homo sapiens, UniProt Q92794, residues 85-181)
Method: protein binding microarray
Form: double-stranded DNA, one strand shown
Sample: in vitro
Tested at: not given
Notes: 8-mer, flanks averaged, mean of 2 arrays, mostly near background
Relative to: not given
Direction: higher = stronger binding
Endpoint: E-score
Construct (chain): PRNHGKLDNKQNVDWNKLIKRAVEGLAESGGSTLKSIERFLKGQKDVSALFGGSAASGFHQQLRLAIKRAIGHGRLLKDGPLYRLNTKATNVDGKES
CCATTGCG: 0.0711
GAACACCA: 0.0111
CCGCCGAC: 0.0879
CGGGCGTC: 0.128
TAGCGCTA: -0.203
TTGAGAAA: -0.0334
GAAACCCA: 0.122
AAATAAAT: 0.0899
AGAAGGTG: 0.0269
CATTCATA: 0.0857
ATCTCATA: 0.14
ACGTTCAT: -0.223
CTAGCCCA: -0.0969
AATCAAGA: -0.0783
ACGGGGAC: 0.0305
GCCTGAGC: 0.167

Excerpt of the above (study 4):
CCATTGCG: 0.0711
GAACACCA: 0.0111
CCGCCGAC: 0.0879
CGGGCGTC: 0.128
TAGCGCTA: -0.203
TTGAGAAA: -0.0334
GAAACCCA: 0.122
AAATAAAT: 0.0899
